Assay results gathered from unrelated publications.
Each line is one published result; not all experiments were run side by side.

Structure (SMILES)	organism	assay	test system	setting	MIC
CC[C@H](C)C[C@H](C)CCCCCCCCC(=O)N[C@H]1C[C@@H](O)[C@@H](NCCN)NC(=O)[C@@H]2[C@@H](O)CCN2C(=O)[C@H]([C@H](O)CCN)NC(=O)[C@H]([C@H](O)[C@@H](O)c2ccc(O)cc2)NC(=O)[C@@H]2C[C@@H](O)CN2C(=O)[C@H]([C@@H](C)O)NC1=O	Pichia norvegensis	broth dilution	ATCC 96139	48 h, 37 °C	0.5 µg/mL
CC(C)C1NC(=O)C(C(=O)NC(C(=O)NC2C(=O)N3C2SC(C)(C)C3C(=O)O)c2ccccc2)=C1O (stereo not shown)	Escherichia coli	broth microdilution	ATCC 35218, low-level TEM-1	no clavulanic acid	> 200 µg/mL
N=C(N)NCCC[C@H](NC(=O)[C@H](Cc1c[nH]c2ccccc12)NC(=O)[C@H](CCCNC(=N)N)NC(=O)[C@H](Cc1c[nH]c2ccccc12)NC(=O)[C@H](Cc1c[nH]c2ccccc12)NC(=O)[C@H](Cc1c[nH]c2ccccc12)NC(=O)[C@H](CCCNC(=N)N)NC(=O)[C@H](Cc1c[nH]c2ccccc12)NC(=O)[C@@H](N)CCCNC(=N)N)C(=O)N[C@@H](Cc1c[nH]c2ccccc12)C(N)=O	Candida albicans	broth microdilution	SP3931, RPMI 1640-MOPS	48 h, 30 °C	8 µM
C[C@@H](O)[C@H](NC(=O)[C@H](Cc1c[nH]c2ccccc12)NC(=O)[C@H](Cc1c[nH]c2ccccc12)NC(=O)[C@H](Cc1c[nH]c2ccccc12)NC(=O)[C@@H](NC(=O)[C@H](Cc1c[nH]c2ccccc12)NC(=O)[C@H](CCCNC(=N)N)NC(=O)[C@@H](N)CCCNC(=N)N)[C@@H](C)O)C(=O)N[C@@H](Cc1c[nH]c2ccccc12)C(=O)N[C@@H](CCCNC(=N)N)C(=O)N[C@@H](CCCNC(=N)N)C(N)=O	Lactiplantibacillus plantarum		7469, probiotic strain	24 h, 37 °C, tested up to 128 µM	128 µM
C[C@H](NC(=O)[C@H](CCCNC(=N)N)NC(=O)[C@H](Cc1c[nH]c2ccccc12)NC(=O)[C@H](CCCNC(=N)N)NC(=O)[C@H](Cc1c[nH]c2ccccc12)NC(=O)[C@H](Cc1c[nH]c2ccccc12)NC(=O)[C@H](Cc1c[nH]c2ccccc12)NC(=O)[C@H](CCCNC(=N)N)NC(=O)[C@H](Cc1c[nH]c2ccccc12)NC(=O)[C@H](CCCNC(=N)N)NC(=O)CN)C(N)=O	Candida albicans	broth microdilution	56214, RPMI 1640-MOPS	48 h, 30 °C	8 µM
C[C@@H](O)[C@H]1C(=O)N2C(C(=O)O)=C(SCCN=CN)C[C@H]12	Klebsiella pneumoniae		K3	at emergence of KPC-144, with: ceftazidime-avibactam, avibactam fixed	32 µg/mL
CC[C@H](C)[C@H](NC(=O)[C@H](CCCNC(=N)N)NC(=O)[C@H](Cc1c[nH]c2ccccc12)NC(=O)[C@H](CCCNC(=N)N)NC(=O)[C@H](Cc1c[nH]c2ccccc12)NC(=O)[C@H](Cc1c[nH]c2ccccc12)NC(=O)[C@H](Cc1c[nH]c2ccccc12)NC(=O)[C@H](CCCNC(=N)N)NC(=O)[C@H](Cc1c[nH]c2ccccc12)NC(=O)[C@@H](N)CCCNC(=N)N)C(N)=O	Candida albicans	broth microdilution	CGMCC 2.209, RPMI 1640-MOPS	48 h, 30 °C, with: ZnCl2 8 µM	16 µM
CC1(C)SC2C(NC(=O)C(NC(=O)C3=C(O)C(Cc4ccco4)NC3=O)c3ccccc3)C(=O)N2C1C(=O)O (stereo not shown)	Escherichia coli	broth microdilution	isolate IU, CTX-M-14, TEM-1	no clavulanic acid	> 200 µg/mL
Cc1ncc([N+](=O)[O-])n1CCO	Prevotella spp.				0.25 to 2 µg/mL
CC1(C)SC2C(NC(=O)C(NC(=O)C3=C(O)C(Cc4ccc([N+](=O)[O-])cc4)NC3=O)c3ccccc3)C(=O)N2C1C(=O)O (stereo not shown)	Escherichia coli	broth microdilution	isolate IU, CTX-M-14, TEM-1	with: clavulanic acid 6 µg/mL	200 µg/mL
N=C(N)NCCC[C@H](NC(=O)CN)C(=O)N[C@@H](Cc1c[nH]c2ccccc12)C(=O)N[C@@H](CCCNC(=N)N)C(=O)N[C@@H](Cc1c[nH]c2ccccc12)C(=O)N[C@@H](Cc1c[nH]c2ccccc12)C(=O)N[C@@H](Cc1c[nH]c2ccccc12)C(=O)N[C@@H](CCCNC(=N)N)C(=O)N[C@@H](Cc1c[nH]c2ccccc12)C(=O)N[C@@H](CCCNC(=N)N)C(=O)N[C@@H](Cc1c[nH]c2ccccc12)C(N)=O	Candida albicans	broth microdilution	58288, RPMI 1640-MOPS	48 h, 30 °C	8 µM
CC(C)(C)Oc1ccc(CC2NC(=O)C(C(=O)NC(C(=O)NC3C(=O)N4C3SC(C)(C)C4C(=O)O)c3ccccc3)=C2O)cc1 (stereo not shown)	Escherichia coli	broth microdilution	Keio mutant JW0587-1	18 h, enterobactin-related gene	25 µg/mL
CN[C@H](CC(C)C)C(=O)N[C@H]1C(=O)N[C@@H](CC(N)=O)C(=O)N[C@H]2C(=O)N[C@H]3C(=O)N[C@H](C(=O)N[C@H](C(=O)O)c4cc(O)cc(O)c4-c4cc3ccc4O)[C@H](O)c3ccc(c(Cl)c3)Oc3cc2cc(c3O[C@@H]2O[C@H](CO)[C@@H](O)[C@H](O)[C@H]2O[C@H]2C[C@](C)(N)[C@H](O)[C@H](C)O2)Oc2ccc(cc2Cl)[C@H]1O	Staphylococcus aureus		MRSA strain 4		2 µg/mL
CC(C)[C@H](NC(=O)[C@H](CCCNC(=N)N)NC(=O)[C@H](Cc1c[nH]c2ccccc12)NC(=O)[C@H](CCCNC(=N)N)NC(=O)[C@H](Cc1c[nH]c2ccccc12)NC(=O)[C@H](Cc1c[nH]c2ccccc12)NC(=O)[C@H](Cc1c[nH]c2ccccc12)NC(=O)[C@H](CCCNC(=N)N)NC(=O)[C@H](Cc1c[nH]c2ccccc12)NC(=O)[C@H](CCCNC(=N)N)NC(=O)CN)C(N)=O	Candida albicans	broth microdilution	CGMCC 2.209, RPMI 1640-MOPS	48 h, 30 °C, with: NaCl 150 mM	32 µM
CC[C@H](C)[C@H](NC(=O)[C@H](CCCCN)NC(=O)[C@H](CCCCN)NC(=O)[C@H](Cc1ccccc1)NC(=O)[C@@H](NC(=O)[C@@H](NC(=O)[C@H](CCCNC(=N)N)NC(=O)[C@H](Cc1ccccc1)NC(=O)[C@@H](NC(=O)[C@H](CCCCN)NC(=O)[C@H](CCCCN)NC(=O)[C@@H](N)CCSC)[C@@H](C)CC)C(C)C)[C@@H](C)CC)C(=O)N[C@@H](CC(C)C)C(=O)N[C@@H](CCCCN)C(=O)N[C@@H](CCCNC(=N)N)C(=O)N[C@@H](CC(C)C)C(=O)N[C@H](C(=O)N[C@H](C(=O)O)C(C)C)[C@@H](C)CC	Staphylococcus aureus	broth microdilution	MRSA GU-1	compound pretreated with trypsin 1 h, with: trypsin 1 mg/mL	> 32 µg/mL
CS(=O)(=O)Nc1ncn(-c2cc(F)c(COc3ccc(OS(=O)(=O)F)cc3)c(F)c2)n1	Mycobacterium avium				6.25 µM
CC[C@H](C)[C@H](NC(=O)[C@H](CC(N)=O)NC(=O)[C@H](CCCCN)NC(=O)[C@H](CC(=O)O)NC(=O)[C@H](Cc1ccc(O)cc1)NC(=O)[C@H](Cc1ccc(O)cc1)NC(=O)[C@H](Cc1ccc(O)cc1)NC(=O)[C@H](CCCNC(=N)N)NC(=O)[C@H](CC(C)C)NC(=O)CNC(=O)[C@H](CCCNC(=N)N)NC(=O)[C@@H](N)CO)C(=O)N[C@H](C(=O)N[C@@H](Cc1c[nH]cn1)C(=O)N[C@@H](CCCCN)C(=O)N[C@H](C(=O)N[C@@H](C)C(=O)NCC(=O)N[C@@H](CCCCN)C(=O)N[C@@H](CCCNC(=N)N)C(=O)N[C@@H](Cc1ccc(O)cc1)C(=O)N[C@H](C(=O)N[C@@H](Cc1ccc(O)cc1)C(=O)N[C@@H](CCCNC(=N)N)C(=O)N[C@@H](Cc1ccccc1)C(=O)N[C@H](C(=O)O)C(C)C)C(C)C)[C@@H](C)O)[C@@H](C)CC	Staphylococcus haemolyticus				200 µg/mL
CC[C@H](C)[C@H](NC(=O)[C@H](CCCNC(=N)N)NC(=O)[C@H](Cc1c[nH]c2ccccc12)NC(=O)[C@H](CCCNC(=N)N)NC(=O)[C@H](Cc1c[nH]c2ccccc12)NC(=O)[C@H](Cc1c[nH]c2ccccc12)NC(=O)[C@H](Cc1c[nH]c2ccccc12)NC(=O)[C@H](CCCNC(=N)N)NC(=O)[C@H](Cc1c[nH]c2ccccc12)NC(=O)[C@H](CCCNC(=N)N)NC(=O)CN)C(N)=O	Candida albicans	broth microdilution	SP3902, RPMI 1640-MOPS	48 h, 30 °C	4 µM
CCN1CCN(C(=O)N[C@@H](C(=O)N[C@@H]2C(=O)N3[C@@H]2SC(C)(C)[C@@H]3C(=O)O)c2ccccc2)C(=O)C1=O	Escherichia coli	broth microdilution	Keio mutant JW0587-1	18 h, enterobactin-related gene	1.56 µg/mL
N=C(N)NCCC[C@H](NC(=O)CN)C(=O)N[C@@H](Cc1c[nH]c2ccccc12)C(=O)N[C@@H](CCCNC(=N)N)C(=O)N[C@@H](Cc1c[nH]c2ccccc12)C(=O)N[C@@H](Cc1c[nH]c2ccccc12)C(=O)N[C@@H](Cc1c[nH]c2ccccc12)C(=O)N[C@@H](CCCNC(=N)N)C(=O)N[C@@H](Cc1c[nH]c2ccccc12)C(=O)N[C@@H](CCCNC(=N)N)C(=O)N[C@@H](Cc1ccccc1)C(N)=O	Candida albicans	broth microdilution	SP3931, RPMI 1640-MOPS	48 h, 30 °C	8 µM
N=C(N)c1cccc(OCc2ccc(COc3cccc(C(=N)N)c3)cc2)c1	Escherichia coli		mcr-1	20 h, compound alone	> 200 µg/mL
CC(C)(C)OCC1NC(=O)C(C(=O)NC(C(=O)NC2C(=O)N3C2SC(C)(C)C3C(=O)O)c2ccccc2)=C1O (stereo not shown)	Escherichia coli	broth microdilution	isolate IU 356 A, KPC-3, VIM-1, TEM	no clavulanic acid	> 200 µg/mL

For quick reference, copied from above:
Structure (SMILES)	organism	assay	test system	setting	MIC
N=C(N)c1cccc(OCc2ccc(COc3cccc(C(=N)N)c3)cc2)c1	Escherichia coli		mcr-1	20 h, compound alone	> 200 µg/mL
CC(C)(C)OCC1NC(=O)C(C(=O)NC(C(=O)NC2C(=O)N3C2SC(C)(C)C3C(=O)O)c2ccccc2)=C1O (stereo not shown)	Escherichia coli	broth microdilution	isolate IU 356 A, KPC-3, VIM-1, TEM	no clavulanic acid	> 200 µg/mL
